Measurements of several laboratories.
Numbered parts are unrelated; each lists some results of a single study.

Series 1 — technique: protein binding microarray; molecule type: double-stranded DNA, one strand shown; sample: in vitro; concentration: not given; baseline: not given; direction: higher = stronger binding; endpoint: E-score
Target: Histone acetyltransferase KAT6A, both winged helices, GST fusion (KAT6A, Homo sapiens, UniProt Q92794, residues 1-181)
Notes: 8-mer, flanks averaged, mean of 2 arrays, mostly near background
Construct (chain): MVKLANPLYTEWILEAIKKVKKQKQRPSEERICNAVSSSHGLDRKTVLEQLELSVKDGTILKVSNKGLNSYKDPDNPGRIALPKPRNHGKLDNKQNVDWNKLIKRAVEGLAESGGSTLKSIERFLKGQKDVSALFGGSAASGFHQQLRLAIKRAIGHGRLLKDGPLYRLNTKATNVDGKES
AGTCCAGG: -0.15
GACACCGA: 0.0311
ACGAGGCT: -0.141
CTCCAACC: -0.0813

Series 2 — technique: protein-binding microarray; molecule type: double-stranded DNA, one strand shown; sample: in vitro; concentration: 940 nM top; notes: 60-bp whole probe; added: salmon DNA 0.4 mg/ml; baseline: random background probes; direction: higher = stronger binding; endpoint: fitted relative affinity
Target: Interferon regulatory factor 5, full length, phosphomimetic (IRF5, Homo sapiens, UniProt Q13568-2, residues 1-514, S451D/S453D/S456D/S462D)
GCCTAGCACGACGGTATAGGTATCGGGACGTGCTAGGTCTTGATTCGCTTGACGCTGCTG: 0.875 z-score
GCCTAGCACTATATTCTATTCCTTTAACAGTGCTAGGTCTTGATTCGCTTGACGCTGCTG: 1.69 z-score
GCCTAGCACGACGGTATCCTACTGCTGAGGTGCTAGGTCTTGATTCGCTTGACGCTGCTG: -0.041 z-score
GCCTAGCACTCAGGACTGGACACTGGGTTAGTGCTAGTCTTGATTCGCTTGACGCTGCTG: -0.364 z-score

Series 3 — technique: RNA Bind-n-Seq; molecule type: RNA; sample: in vitro; concentration: 200 nM; notes: whole 134-nt RNA, ends assumed; added: 150 mM KCl; baseline: input library; direction: higher = stronger binding; endpoint: log2 enrichment
Target: Fragile X messenger ribonucleoprotein 1, C-terminal low-complexity region (Fmr1, Mus musculus, UniProt P35922)
Constant ends, left off below: GGGAGUUCUACAGUCCGACGAUC … UGGAAUUCUCGGGUGUCAAGG
GUCCUGUGCUACACAUCGUAUGUACCGAAUCAAAUUUUUUUAAACCCAAACCCCCAAAAAAGUAUUAUGUUACGCCGUUCGGAUCUGCAC: -0.348
UGGCCCUGGUGGCAUGCGGGGAGGAAGAGGCGGCCUCAUGGAUCGUGGUGGUCCCGGUGGAAUGUUCAGAGGUGGCCGUGGUGGAGACAG: -0.118
UCCUCAAGUCCUGUGCUACACAUCGUAUGUACCGAAUCGGUGGUUUGGAGGAAAGUAUUAUGUUACGCCGUUCGGAUCUGCACUUCCAGC: -0.361
UCAAGUCCUGUGCUACACAUCGUAUGUACCGAAUCGGGGUUGGGGUUGGUUGGGGAAAGUAUUAUGUUACGCCGUUCGGAUCUGCACUUC: 0.824
CACAGACAACACGCACCCACACAGACACAGAGGGAAGGGGUUGGGAUGGGGACAGGGUGCCCAGCAGGGCGGGGUAGGACCCCAGCCCCU: 1.22

Further values, each from its own experiment
PhoQ, residues 284 288 289 292 302 303 NLSRDF — fold induction (PhoP, residues 12 14 15 18 19 AGCRL (Escherichia coli, UniProt P23836); Sort-seq, item: YFP reporter; E. coli; PhoQ-PhoP variant library, added: 10 µM Mg2+; baseline: high Mg2+ state, higher = stronger signaling): 5.93

A few entries again (series 3):
UGGCCCUGGUGGCAUGCGGGGAGGAAGAGGCGGCCUCAUGGAUCGUGGUGGUCCCGGUGGAAUGUUCAGAGGUGGCCGUGGUGGAGACAG: -0.118
UCCUCAAGUCCUGUGCUACACAUCGUAUGUACCGAAUCGGUGGUUUGGAGGAAAGUAUUAUGUUACGCCGUUCGGAUCUGCACUUCCAGC: -0.361
